# Experimental data from different studies.
# Cell line: HepG2
# Read-out: cell growth or viability
SMILES,technique,time,IC50
CCCCCCCCCCCCCC(=O)N[C@H](CCN)C(=O)N[C@@H]1C(=O)N[C@@H](CCN)C(=O)N[C@@H](CC(C)C)C(=O)N[C@@H](CCN)C(=O)N[C@H](Cc2ccccc2)C(=O)N[C@@H](CC(C)C)C(=O)N[C@@H](CCN)C(=O)N[C@H](CCN)C(=O)N[C@@H](C(C)C)C(=O)N[C@@H](CC(=O)O)C(=O)O[C@@H]1C,MTT,48 h,> 30 µg/mL
O=C1CC2(C1)C(=O)[O][Pt]1([Cl])([O]C(=O)C(F)(F)F)([NH][C@@H]3CCCC[C@H]3[NH]1)[O]C2=O,MTT,,17.5 µM
COc1ccc(CCNc2cc(-c3ccccc3)nc3ncnn23)cc1,ATP luminescence,48 h,> 25 µM
CNC(=O)c1cc(Oc2ccc(NC(=O)c3cc(-c4cccc(OC(=O)CCC(=O)OC5OC6OC7(C)CCC8C(C)CCC(C5C)C68OO7)c4)ccn3)cc2)ccn1 (stereo not shown),MTT,72 h,12.3 µM
CC[C@@]1(O)C(=O)OCc2c1cc1n(c2=O)Cc2cc3cc(OC(=O)CCCC(=O)NCC(=O)N[C@@H](Cc4ccccc4)C(=O)N[C@@H](Cc4ccccc4)C(=O)N[C@@H](Cc4ccc(O)cc4)C(=O)NCCSSCCNC(=O)CCC(=O)N[C@@H](CCC(=O)O)C(=O)N[C@@H](CCCNC(=N)N)C(=O)NCC(=O)N[C@@H](CC(=O)O)C(=O)O)ccc3nc2-1,MTT,,0.355 µM
CCc1ccc([C@@H]2C[C@H](C(F)(F)F)n3ncc(C(=O)NCc4ccc(OC)cc4)c3N2)cc1,ATP luminescence,48 h,38 µM
Cc1cn2c(C(=O)NCc3ccc(C(F)(F)F)cc3)c(C)nc2s1,,,> 25 µM
CNC(=O)c1cc(Oc2ccc(NC(=O)c3cc(-c4cccc(COC(=O)CCC(=O)OC5OC6OC7(C)CCC8C(C)CCC(C5C)C68OO7)c4)ccn3)cc2)ccn1 (stereo not shown),MTT,72 h,9.93 µM
O=P(O)(O)Oc1ccc(Oc2ccc(S(=O)(=O)CC3CS3)cc2)cc1 (racemic),XTT,,140 µM
COc1ccc2nc(C)cc(OCC(=O)Nc3cc(C)cc(C)c3)c2c1,ATP luminescence,48 h,> 50 µM
CCCCCCCCCCCCCCC(=O)O.O=C1CCCC2C3CCCN4CCCC(CN12)C34 (stereo not shown),MTT,24 h,150 µM
Cc1cccc(-c2nc(Nc3ccncn3)c3sccc3n2)n1,ATP luminescence,48 h,31.4 µM
CNC(=O)c1cc(Oc2ccc(NC(=O)c3ccc(-c4ccc(OC(=O)CCC(=O)OC5OC6OC7(C)CCC8C(C)CCC(C5C)C68OO7)cc4)cn3)cc2)ccn1 (stereo not shown),MTT,72 h,8.33 µM

# Excerpt of the above:
SMILES,technique,time,IC50
COc1ccc2nc(C)cc(OCC(=O)Nc3cc(C)cc(C)c3)c2c1,ATP luminescence,48 h,> 50 µM
